Results of several laboratories.
Values joined by “and” are separate records of one study, mostly repeats; a detail may differ. ± marks the error that the study gave.
NADH dehydrogenase [ubiquinone] iron-sulfur protein 7, mitochondrial/NADH dehydrogenase [ubiquinone] iron-sulfur protein 2, mitochondrial/MT-ND1: NADH dehydrogenase [ubiquinone] iron-sulfur protein 7, mitochondrial/NADH dehydrogenase [ubiquinone] iron-sulfur protein 2, mitochondrial/MT-ND1 (Homo sapiens, UniProt O75251+O75306+P03886)
FFAR4: Free fatty acid receptor 4 (FFAR4, Homo sapiens, UniProt Q5NUL3)
Maoa: Amine oxidase [flavin-containing] A (Maoa, Rattus norvegicus, UniProt P21396)
Kir3.1/Kir3.2: Kir3.1/Kir3.2 (Homo sapiens, UniProt P48051+P48549)
TRPM8: Transient receptor potential cation channel subfamily M member 8 (TRPM8, Homo sapiens, UniProt Q7Z2W7)
GAP50: Glideosome-associated protein 50 (GAP50, Plasmodium falciparum, UniProt Q8I2X3)

The fraction bound of O=S(=O)(O)C1CCNCC1 is reported as 0 (SLC6A6 (Homo sapiens, UniProt P31641, Y138A); binding, microscale thermophoresis; 46.3 nM, fitted curve; higher = more binding).
Under “oxygen consumption rate”, NC(=O)NOCCCCCCCCCCCC[P+](c1ccccc1)(c1ccccc1)c1ccccc1.O=C([O-])C(F)(F)F is recorded as 51.9 ± 15% (NADH dehydrogenase [ubiquinone] iron-sulfur protein 7, mitochondrial/NADH dehydrogenase [ubiquinone] iron-sulfur protein 2, mitochondrial/MT-ND1; complex I-dependent respiration, Seahorse XF96; HCT-116; 2 µM, 24 h; baseline: control).
For CCCCCCCCNc1c[nH]c(=O)[nH]c1=O, the inhibition was 38 ± 4% (FFAR4; antagonist, β-arrestin recruitment; CHO cells; 10 µM, together with: 4 µM TUG-891).
Nc1nc2ccccc2[nH]1 has a Hill coefficient of 1.05 ± 0.09 (HVCN1 (Homo sapiens, UniProt Q96D96); proton current, inhibitor, inside-out patch clamp; Xenopus oocytes; dimeric channel).
With CC[C@@H](C)[C@@H](NC(=O)[C@@H](Cc1ccc(O)cc1)NC(=O)[C@H]1CCCN1C(=O)[C@@H](CCCNC(=N)N)NC(=O)[C@H](N)Cc1c[nH]cn1)C(=O)N[C@H](C)C(=O)N[C@H](Cc1c[nH]cn1)C(=O)N[C@H](CCCNC(=N)N)C(=O)N[C@@H](C(=O)N[C@H](Cc1ccc(O)cc1)C(=O)N[C@H](CO)C(=O)N[C@H](Cc1ccccc1)C(N)=O)C(C)C the surface expression was 0.423 and 0.436 (Transferrin receptor protein 1 (Tfrc, Mus musculus, UniProt Q62351); flow cytometry; DC2.4; 48 h, pH 7.4, unit not given; baseline: 0 h).
For N[C@@H](Cc1ccccc1)C(=O)O, the cAMP level was 17.5 pmol/mg protein and 20.4 pmol/mg protein and 19.4 pmol/mg protein and 25.6 pmol/mg protein and 19.8 pmol/mg protein (ADRB1 (Homo sapiens, UniProt P08588); HEK293 expressing β1AR; 100 nM).
The Hill coefficient of Nc1nc2c(ncn2[C@@H]2O[C@@H]3COP(=O)(O)O[C@H]3[C@H]2O)c(=O)[nH]1 is reported as 1.8 and 2.1 (Cone cGMP-gated channel (Morone saxatilis, UniProt Q3I0N1+Q3I0N2); channel current, agonist, suction electrode; cone outer segments; single cone shown, together with: 0.5 µM Ca2+).
With CCn1c(NC(=O)Nc2ccccc2C)nc2ccccc21 the Hill slope was 0.9 (3-oxoacyl-[acyl-carrier-protein] reductase FabG (fabG, Pseudomonas aeruginosa, UniProt O54438); enzyme activity, inhibitor, NADPH fluorescence; reverse reaction, together with: 3-OH-decanoyl-NAC, NADP).
With O=C(CCCCCCC(=O)Nc1ccccc1)NO the TΔS° was 0.01 kcal/mol (HDAC8 (Homo sapiens, UniProt Q9BY41); ITC; Tris-HCl buffer; 288 K).
The linear DNA of O=c1nc(SCc2cc(F)cc(C(F)(F)F)c2)nc(SCc2ccc3nc(OCCN4CCOCC4)ccc3c2)[nH]1 is reported as 0% (TOP2A (Homo sapiens, UniProt P11388); DNA cleavage; 15.6 µM, replicate 2).
For Cc1cc2c(c(=O)[nH]1)C(=O)O/C2=C\c1ccc(F)cc1OC(C)C, “binding free energy” read -8.38 kcal/mol (Dual specificity calcium/calmodulin-dependent 3',5'-cyclic nucleotide phosphodiesterase 1C, isoform PDE1C2 (PDE1C, Homo sapiens, UniProt Q14123); enzyme activity, inhibitor; together with: 3H-cGMP substrate).
O=c1cc(NCCc2cccs2)[nH]c(=O)[nH]1 has an inhibition of -19 ± 8% (FFAR4; antagonist, β-arrestin recruitment; CHO cells; 10 µM, together with: 4 µM TUG-891).
For NCc1ccc(C(F)(F)F)cc1, the log Kd was -4.8 M (Maoa; pKa-corrected).
COc1cccc(-n2nc3c4cc(Cl)ccc4[nH]cc-3c2=O)c1 has a GABA current of 99 ± 1.4% (Gamma-aminobutyric acid receptor subunit alpha-4/beta-3, with delta subunit (Rattus norvegicus, UniProt P28471+P63079); modulator, two-electrode voltage clamp; α4β3δ receptor; 10 nM, together with: GABA EC3-10; baseline: GABA alone).
CCc1cc(NC(=O)COc2ccc(Cl)cc2Cl)n(C2CCC(F)(F)CC2)n1 has an Emax of 83% (Kir3.1/Kir3.2; thallium flux, activator; HEK293; baseline: standard compound).
For COc1cccc2c(Nc3ccc4[nH]c(C(=O)N/N=C/c5ccc(SC)cc5)cc4c3)cc(C)nc12, the activation was 1.09 ± 0.09 fold (Nuclear receptor subfamily 4 group A member 2, LBD (Homo sapiens, UniProt P43354); reporter gene, Gal4 hybrid reporter; 1 µM; baseline: vehicle).
The remaining activity of O=Nc1c(-c2c(O)[nH]c3ccccc23)[nH]c2ccccc12 is reported as 93.4 ± 10.9% (TRPM8; antagonist; HEK293; 5 µM; baseline: control).
NC(Cc1cc(I)c(Oc2cc(I)c(O)c(I)c2)c(I)c1)C(=O)O (centres unmarked): “activity relative to T3” 88% (Thyroxine 5-deiodinase (DIO3, Homo sapiens, UniProt P55073); deiodination, substrate; concentration not given; baseline: T3).
With C=CC(=O)N1CCC(COCC(=O)N2CCN(c3nc(-c4cnc(N)nc4C(F)F)nc(N4CCOC[C@@H]4C)n3)CC2)CC1 the remaining binding was 100% (STK39 (Homo sapiens, UniProt Q9UEW8); KINOMEscan; 1 µM).
The remaining activity of CC(C)[C@H](CO)Nc1nc(Nc2cc(N)cc(Cl)c2)c2ncn(C(C)C)c2n1 is reported as 64.5 ± 5.34% (TRPM8; antagonist; HEK293; 5 µM; baseline: control).
COc1cc(/C=C/c2ccc(O)cc2)cc(OC)c1: “ΔG of binding” -9.85 kcal/mol (O-methyltransferase (Sorghum bicolor, UniProt A0A1B6PFV1); concentration not given, together with: SAH+).
C#CCNCCCN1CCN(CCCNC(=O)c2ccc(C(=O)c3ccc([N+](=O)[O-])cc3)cc2)CC1 gave a Ki ratio of 7.39 (TMEM97 (Homo sapiens, UniProt Q5BJF2); radioligand binding; RT-4 cell membranes; baseline: sigma1 Ki over sigma2 Ki).
For COCCNc1nc2ccc(C#CC3(O)CCCCC3)cc2n1-c1ccnc(N)n1, “remaining kinase activity” read 14.9% (PAK2 (Homo sapiens, UniProt Q13177); enzyme activity, inhibitor, Z'-LYTE; 1 µM; baseline: no-inhibitor control).
Under “oxygen consumption rate”, NC(=O)NOCCCCCCCCCCCCCCCC[P+](c1ccccc1)(c1ccccc1)c1ccccc1.O=C([O-])C(F)(F)F is recorded as 88.9 ± 5.6% (NADH dehydrogenase [ubiquinone] iron-sulfur protein 7, mitochondrial/NADH dehydrogenase [ubiquinone] iron-sulfur protein 2, mitochondrial/MT-ND1; complex I-dependent respiration, Seahorse XF96; HCT-116; 0.1 µM, 24 h; baseline: control).
CCCCCCCCNc1[nH]c(=O)[nH]c(=O)c1N=O has an activation of 0 ± 1% (FFAR4; agonist, β-arrestin recruitment; CHO cells; 10 µM).
O=c1c(-c2ccc(F)cc2)c(-c2ccncc2)[nH]n1-c1ccc(Cl)cc1 has a remaining activity of 103 ± 9.98% (TRPM8; antagonist; HEK293; 5 µM; baseline: control).
[Cl-].[K+] has a reaction velocity of -0.0149 µM/s and -0.0223 µM/s and -0.019 µM/s (GUK1 (Homo sapiens, UniProt Q16774); enzyme activity, NADH-coupled; 120 mM).
Cc1cc(C)cc(COc2ccc3c(C)c(CCC(=O)O)c(=O)oc3c2C)c1 gave a koff of 0.953 s⁻¹ (GAP50; binding, surface plasmon resonance; 1:1 binding model).
O=C(O)CCCc1c[nH]c2ccccc12 — result for binding: “binds” (Germin-like protein subfamily 3 member 1 (GLP1, Arabidopsis thaliana, UniProt P94040); microscale thermophoresis; Arabidopsis protoplast extract; concentration not given).
Nc1nc2c(ncn2[C@@H]2O[C@H](COP(=O)(O)O)[C@@H](O)[C@H]2O)c(=O)[nH]1 gave a reaction rate of 1.26 s⁻¹ and 0.803 s⁻¹ and -0.123 s⁻¹ (GUK1 (Homo sapiens, UniProt Q16774, E72A); enzyme activity, NADH-coupled; 2000 µM).
With CC[C@@H]1[C@H](F)C(=O)N[C@@H]1COc1nccc2cc(C(N)=O)c(OC)cc12 the inhibition was 9.3% (CAMK1D (Homo sapiens, UniProt Q8IU85); ATP-site probe binding, ActivX profiling; THP-1 cell lysate; 0.2 mM, Lys1 site).
Cc1nn(C2CCS(=O)(=O)C2)c(C)c1NC(=O)COc1ccc(Cl)cc1Cl (centres unmarked): activity “inactive” (Kir3.1/Kir3.2; activator, thallium flux; HEK293; concentration not given).
CCCCCCCNc1cc(=O)[nH]c(=O)[nH]1 gave an agonist effect of 0% (FFAR4; β-arrestin recruitment; CHO; 10 µM; baseline: 30 µM TUG-891).
With CCOc1ccc(-c2nc(CNCCc3ccc(F)cc3)cs2)cc1 the kon was 6940 M⁻¹ s⁻¹ (GAP50; binding, surface plasmon resonance; 1:1 binding model).
CCc1cc(NC(=O)COc2cccc(Cl)c2Cl)n(CC(F)(F)F)n1 gave an Emax of 83% (Kir3.1/Kir3.2; thallium flux, activator; HEK293; baseline: standard compound).
With COc1ccc(CN)cc1 the log Kd was -6.4 M (Maoa; pKa-corrected).
O=C(ON1C(=O)CCC1=O)c1cc(C(F)(F)F)cc(C(F)(F)F)c1 has a kobs of 0.163 min⁻¹ (CD209 antigen (CD209, Homo sapiens, UniProt Q9NNX6); covalent labelling, intact protein MS; 50 µM).
Under “oxygen consumption rate”, NC(=O)NO is recorded as 91.3 ± 1.98% (NADH dehydrogenase [ubiquinone] iron-sulfur protein 7, mitochondrial/NADH dehydrogenase [ubiquinone] iron-sulfur protein 2, mitochondrial/MT-ND1; complex I-dependent respiration, Seahorse XF96; HCT-116; 250 µM, 24 h; baseline: control).
C[C@@H](O)[C@@H](CO)NC(=O)[C@@H](CCCNC(=N)N)NC(=O)[C@@H]1CCCN1C(=O)[C@@H]1CSSC[C@H](NC(=O)[C@H](Cc2ccccc2)NC(=O)CN2CCN(CC(=O)O)CCN(CC(=O)O)CCN(CC(=O)O)CC2)C(=O)N[C@@H](Cc2ccc(O)cc2)C(=O)N[C@@H](Cc2ccccc2)C(=O)N[C@@H](CCC(N)=O)C(=O)N[C@@H](CC(N)=O)C(=O)N1 [gallium-68 labelled] has a binding of 28.7% and 32.4% and 31% (AVPR1B (Homo sapiens, UniProt P47901); receptor binding, radioimmunoassay; concentration not given, together with: vasopressin V1b 125 nM).
c1coc(-c2n[nH]cc2-c2ccnc3ccccc23)c1: “log2 fold change” -0.79 (YCK2 (Candida albicans, UniProt A0A1D8PKB4); kinase binding, MIB/MS competition; Candida albicans lysate; 10 µM; baseline: DMSO, negative = stronger binding).
Under “oxygen consumption rate”, NC(=O)NOCCCCCCCCCCCCCCCCCCCC[P+](c1ccccc1)(c1ccccc1)c1ccccc1.O=C([O-])C(F)(F)F is recorded as 94.6 ± 11.4% (NADH dehydrogenase [ubiquinone] iron-sulfur protein 7, mitochondrial/NADH dehydrogenase [ubiquinone] iron-sulfur protein 2, mitochondrial/MT-ND1; complex I-dependent respiration, Seahorse XF96; HCT-116; 0.03 µM, 24 h; baseline: control).

For quick reference, copied from above:
With O=C(CCCCCCC(=O)Nc1ccccc1)NO the TΔS° was 0.01 kcal/mol (HDAC8 (Homo sapiens, UniProt Q9BY41); ITC; Tris-HCl buffer; 288 K).
The linear DNA of O=c1nc(SCc2cc(F)cc(C(F)(F)F)c2)nc(SCc2ccc3nc(OCCN4CCOCC4)ccc3c2)[nH]1 is reported as 0% (TOP2A (Homo sapiens, UniProt P11388); DNA cleavage; 15.6 µM, replicate 2).
For Cc1cc2c(c(=O)[nH]1)C(=O)O/C2=C\c1ccc(F)cc1OC(C)C, “binding free energy” read -8.38 kcal/mol (Dual specificity calcium/calmodulin-dependent 3',5'-cyclic nucleotide phosphodiesterase 1C, isoform PDE1C2 (PDE1C, Homo sapiens, UniProt Q14123); enzyme activity, inhibitor; together with: 3H-cGMP substrate).
O=c1cc(NCCc2cccs2)[nH]c(=O)[nH]1 has an inhibition of -19 ± 8% (FFAR4; antagonist, β-arrestin recruitment; CHO cells; 10 µM, together with: 4 µM TUG-891).
